Assay results from different studies.
Every numbered part comes from another study and shows a few of its results, in no order. Positions count from the first letter of the parent shown.

Set 1 — technique: universal PBM; molecule type: double-stranded DNA, one strand shown; matrix: in vitro; concentration: 600 nM; direction: higher = stronger binding
Target: Sal-like protein 4, full length isoform A (SALL4, Homo sapiens, UniProt Q9UJQ4, residues 1-1053)
UniProt Q9UJQ4, sequence (whole entry, looked up): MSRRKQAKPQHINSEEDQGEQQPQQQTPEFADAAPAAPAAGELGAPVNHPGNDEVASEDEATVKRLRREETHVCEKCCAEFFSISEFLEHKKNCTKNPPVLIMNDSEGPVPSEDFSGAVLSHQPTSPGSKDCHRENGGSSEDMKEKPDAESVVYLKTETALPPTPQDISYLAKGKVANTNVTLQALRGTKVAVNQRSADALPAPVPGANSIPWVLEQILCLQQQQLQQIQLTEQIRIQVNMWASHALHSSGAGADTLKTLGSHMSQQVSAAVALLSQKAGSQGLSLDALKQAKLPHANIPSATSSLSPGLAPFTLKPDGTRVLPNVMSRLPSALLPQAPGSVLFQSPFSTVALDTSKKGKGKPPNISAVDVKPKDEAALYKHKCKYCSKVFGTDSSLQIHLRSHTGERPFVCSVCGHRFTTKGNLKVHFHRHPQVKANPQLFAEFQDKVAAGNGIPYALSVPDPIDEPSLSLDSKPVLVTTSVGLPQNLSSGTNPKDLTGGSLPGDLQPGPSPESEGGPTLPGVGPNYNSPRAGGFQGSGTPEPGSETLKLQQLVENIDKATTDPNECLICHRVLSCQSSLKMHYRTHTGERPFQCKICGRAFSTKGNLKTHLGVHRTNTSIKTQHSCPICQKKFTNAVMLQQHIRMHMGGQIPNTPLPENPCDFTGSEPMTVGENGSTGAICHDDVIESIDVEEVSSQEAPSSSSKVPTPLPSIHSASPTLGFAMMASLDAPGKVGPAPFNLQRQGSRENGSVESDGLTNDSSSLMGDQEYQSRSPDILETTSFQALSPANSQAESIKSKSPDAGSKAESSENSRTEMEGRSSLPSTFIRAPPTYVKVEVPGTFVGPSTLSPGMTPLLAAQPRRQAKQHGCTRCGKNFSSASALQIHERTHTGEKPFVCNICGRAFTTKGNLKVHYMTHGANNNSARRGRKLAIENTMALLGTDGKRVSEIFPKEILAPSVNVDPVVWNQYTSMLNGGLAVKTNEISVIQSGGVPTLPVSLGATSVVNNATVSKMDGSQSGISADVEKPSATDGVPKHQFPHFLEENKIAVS
Setting: 8-mer, flanks averaged, mean of replicates
Sequence | E-score
AAGAAAAA | 0.317
CCCAGACG | -0.296
CAAGAGAG | 0.0709
AGTGCAGG | -0.239
CACAGCGC | -0.248
CCACGGAC | -0.267
CTGCCTGC | -0.225
CACTTCGC | -0.0598
CGTCTACA | -0.119
AAGTCCAG | 0.0407
ACCAAGCG | -0.213
ATCGTTGG | 0.133
TCTCATCA | 0.148
ACTCCGCT | -0.212
CTGGACGA | -0.204
ACCGGCCT | -0.327

Set 2 — target: CCND3, cyclin fold, Cln2 fusion (human); technique: yeast growth competition, sequencing; matrix: yeast; setting: weak parent motif; relative to: not given; direction: higher = stronger binding
Parent: RB1 docking peptide (human); PKPLKKLRFDIEG; partner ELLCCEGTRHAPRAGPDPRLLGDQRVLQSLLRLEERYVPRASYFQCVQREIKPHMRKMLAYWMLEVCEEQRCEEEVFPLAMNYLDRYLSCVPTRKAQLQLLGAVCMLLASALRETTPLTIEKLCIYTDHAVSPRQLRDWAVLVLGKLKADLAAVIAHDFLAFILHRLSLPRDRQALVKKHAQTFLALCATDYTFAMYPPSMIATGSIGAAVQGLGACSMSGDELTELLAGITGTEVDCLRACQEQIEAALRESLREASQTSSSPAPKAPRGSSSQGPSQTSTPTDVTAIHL
Substitution | normalised enrichment score
K5T | 0.14
P1Q | 0.125
P3N | 0.0641
E12V | 0.0624
L7V | 0.194
I11F | 0.168
E12G | 0.181
L4K | 0.0222
K5R | -0.049
K2Q | 0.0855
K6D | 0.168
D10S | 0.0311
P1C | 0.268

Set 3 — technique: RNA Bind-n-Seq; molecule type: RNA; matrix: in vitro; concentration: 365 nM; relative to: no-protein control; direction: higher = stronger binding
Target: RNA binding protein fox-1 homolog 2, RRM domain, GST-SBP tag (RBFOX2, Homo sapiens, UniProt O43251-10, residues 100-194)
Setting: natural RNA segment, single round, ends assumed
All sequences stand within: GGGAGUUCUACAGUCCGACGAUC … UGGAAUUCUCGGGUGCCAA
Construct (chain): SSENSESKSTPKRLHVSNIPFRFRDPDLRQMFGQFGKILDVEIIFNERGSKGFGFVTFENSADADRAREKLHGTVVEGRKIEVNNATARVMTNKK
Sequence | RBNS enrichment (R)
CACAUCUCUCACACAGCUGAGAGUCACCUUUCCAGGCGGGCCUGGCCUUGUGUAGAAAGUCUCUGGGAAUGGUGUUACGUGAAAGAGGGAUUCCCGUGUCAAGCCAGUGA | 0.99
GUCAGAACUGUCCCCUUGGAGAUGUGACUGUGUUUGUAACAAUAUUGUCCUCACUGCCGUGGACACGUGGACACGUCCCACCUGAACCCCCUGCCGGACCAGGAGGCUCC | 0.362
UUACCAGCCUUUCUGAUUCUUUUUUAGCUCCCCGAUUGUCUACCCCGCAUCCCUGGUCACAUGCCCACUCUAUUCCCUUACCAUGGUCACGGCCUCUGCAACAGGGCCCU | 0.795
AGGGGAUGUUUGCCUUUAAGGUUUUAUACUUUGUUUGGUUUGGAAAGAUGCUUUAAAUUAAAUUUGGGUAAUAUUAAACCACAUGUUUACAAUACCAAAAUCCACAAAAG | 0.506
GGUUCUGAGAGGGGGCUUCUAGGAAGGCCCCAGCCCUAGUCCUAGGCGACUUGAAUAAAGUGGGAGGUCAAACAUGGGCCUUCGGCAUUGGGUUUCUAGGGAAUAUGGCU | 0.314
GGACACACUGCAGGAGUUCCUGAAGCUGGCCUGAGUCAGGAUGGCCACCGAUCCUAUCCAGCUAGCUCUUCACCAGGCCUUGUAACCAACUCCUUGUCGUCCUAAUCUGC | 0.296
AAUUUCUAGAAAUGUAUCCUUCUCACAAAGUAGAGACCAAGAGAAAAACUCAUUGAUUGGGUUUCUACUUCUUUCAAGGACUCAGGAAAUUUCACUUUGAACUGAGGCCA | 0.461
UCACCUCUUAAAAACAUUGUUUCCACUUUAAAAGUAAACACUUAAUAAAUUUUUGGAAGAUCUCUGAUUUUUAUGUGUUCAUUUAUGAACAUUAAAUACGAAAAUAUUAU | 0.513

Mixed results
Molecule | target | assay | system | conditions | scale | measurement | value
PhoQ, residues 284 288 289 292 302 303 SLKLQV | PhoP, residues 12 14 15 18 19 VQALL (Escherichia coli, UniProt P23836) | Sort-seq, item: YFP reporter | E. coli | PhoQ-PhoP variant library, added: 10 µM Mg2+ | relative to: high Mg2+ state, higher = stronger signaling | fold induction | 16.3

Some of these lines once more (set 2):
Substitution | normalised enrichment score
P3N | 0.0641
E12V | 0.0624
L7V | 0.194
I11F | 0.168
E12G | 0.181
L4K | 0.0222
